Experimental data from different studies.
Protocols differ between the studies behind these lines. Values joined by “and” are separate records of one study, mostly repeats; a detail may differ. Numbers after ± are the reported error.

CC(C)[C@H](C(=O)O[C@H](C#N)c1cccc(Oc2ccccc2)c1)c1ccc(Cl)cc1  CLint (pooled human liver cytosol): 35 µL/min/mg
CC(C)CC(=O)OC[C@H]1O[C@@](C#N)(c2ccc3c(N)ncnn23)[C@H](O)[C@@H]1O  recovery in faeces (Sprague-Dawley rat, male, faeces; 80 mg/kg, time not given; relative to: dose): 0.0767%
Cc1cc(C)c(CNC(=O)c2cc(Cl)c3c(c2C)O[C@@](C)([C@H]2CC[C@H](N(C)C)CC2)O3)c(=O)[nH]1  Infection incidence (human, relapsed/refractory NHL; concentration not given, all TEAEs, grade 5): 0%
O=[N+]([O-])c1cc2c3c(ccc2c2ccccc12)[C@H](O)[C@@H](O)C=C3  tumours per rat (refers to: adenoma mammary tumours; female Sprague-Dawley rats; intramammary, 12.3 µmol per rat, up to 32 weeks): 0.17 ± 0.64
c1ccc2c(c1)cc1ccc3cccc4ccc2c1c34  literature range of log K (PDMS-water partitioning; PAH compilation): 4.9 to 5.96 log units
CCCCc1nc2cc(/C=C/C(=O)NO)ccc2n1CCN(CC)CC  body weight (mouse, SET-2 subcutaneous xenograft; 75 mg/kg every other day, day 18; relative to: baseline): 100%
CO[C@H]1C[C@@H]2CC[C@@H](C)[C@@](O)(O2)C(=O)C(=O)N2CCCC[C@H]2C(=O)O[C@H]([C@H](C)C[C@@H]2CC[C@@H](OC(=O)NCCOCCOCCOCCOCCOCCOCCOCCOCCC(=O)N3CCc4cc(Cn5nc(-c6ccc7oc(N)nc7c6)c6c(N)ncnc65)ccc4C3)[C@H](OC)C2)C[C@@H](O)[C@H](C)/C=C(\C)[C@@H](O)[C@@H](OC)C(=O)[C@H](C)C[C@H](C)/C=C/C=C/C=C/1C  any SAE incidence (phase 1 dose escalation; advanced solid tumour patients; intravenous, 12 mg weekly, any grade): 16.7%
N[C@@H]1c2ccccc2OC12CCN(c1cnc3c(N4CCCc5ncccc54)n[nH]c3n1)CC2  incidence grade ≥3 TEAE (patients advanced metastatic solid tumours; oral, 60 mg once daily, RP2D expansion phase): 60%
N#C[C@@]12C[C@@H]1[C@@H](n1cnc3c(NC4CCCC4)nc(I)nc31)[C@H](O)[C@@H]2O  tolerability (male C57BL/6J mice; intraperitoneal, 1 3 mg/kg): not toxic
C=CC(=O)Nc1cc(Nc2nccc(Nc3cc(Cl)c(F)cc3C(C)(C)O)n2)c(OC)cc1N1CC[C@@H](N(C)C)C1  patients with AST increased (human patients; oral, 400 mg, treatment-emergent adverse events): 20%
CC[C@H](C)[C@H](NC(=O)[C@H](Cc1ccccc1)NC(=O)[C@H](CCC(=O)O)NC(=O)[C@H](CCCNC(=N)N)NC(=O)[C@H](C)NC(=O)[C@H](C)NC(=O)[C@H](CCC(N)=O)NC(=O)[C@H](CCC(=O)O)NC(=O)[C@H](CCC(=O)O)NC(=O)[C@H](CC(C)C)NC(=O)[C@H](Cc1ccc(O)cc1)NC(=O)[C@H](CO)NC(=O)[C@H](CO)NC(=O)[C@@H](NC(=O)[C@H](CC(=O)O)NC(=O)[C@H](CO)NC(=O)[C@@H](NC(=O)[C@H](Cc1ccccc1)NC(=O)[C@@H](NC(=O)CNC(=O)[C@H](CCC(=O)O)NC(=O)[C@H](C)NC(=O)CCc1cnc[nH]1)[C@@H](C)O)[C@@H](C)O)C(C)C)C(=O)N[C@@H](C)C(=O)N[C@@H](Cc1c[nH]c2ccccc12)C(=O)N[C@@H](CC(C)C)C(=O)N[C@H](C(=O)N[C@@H](CCCNC(=N)N)C(=O)NCC(=O)N[C@@H](CCCNC(=N)N)C(=O)N[C@@H](CCCCNC(=O)COCCOCCNC(=O)COCCOCCNC(=O)CC[C@H](NC(=O)CCCCCCCCCCCCCCCCC(=O)O)C(=O)O)C(=O)NCC(=O)NCC(=O)N[C@@H](CO)C(=O)N[C@@H](CCSC)C(=O)N[C@H](C(=O)N[C@@H](CCCCNc1c(NCCCCCN(O)C(=O)CCC(=O)NCCCCCN(O)C(=O)CCC(=O)NCCCCCN(O)C(C)=O)c(=O)c1=O)C(=O)O)C(C)C)C(C)C [zirconium-89 labelled]  tissue uptake (ex vivo gamma counting; male Sprague-Dawley rats, stomach; intravenous, 5 MBq (1 nmol), 72 h): 0.101 %ID/g
O=S(=O)(Nc1ccccc1)c1ccc(NC(=S)Nc2ccccc2)cc1  potassium level (female mouse, blood; oral, 20 mg/kg daily, 14 days): 9.6 mmol/L
Clc1ccc(Cl)c(-c2ccccc2Cl)c1  literature range factor (polyethylene-water partitioning; PCB compilation; relative to: maximum over minimum K): 1.3
NC(=O)[C@H]1CCN(c2ncnc(N)c2F)C[C@@H]1N1CCC[C@@H](Nc2cc(Cl)cc(C(F)(F)F)c2)C1=O  any grade ≥3 adverse event (B-cell malignancy patients; oral, 20.5 mg twice daily, dose): 100%
COc1ccnc(C(=O)N[C@H]2COC(=O)[C@H](Cc3ccccc3)[C@@H](OC(=O)C(C)C)[C@H](C)OC2=O)c1OCOC(=O)C(C)C  storage stability of residues (straw, bran, forage, germ; -18 °C): 9 months
C[C@]1(CO)Cc2ncn(-c3ccc(C#N)c(Cl)c3)c2C(=O)O1  half-life (human, Chinese, plasma; 80 mg single dose, geometric mean): 5.4 h
COc1cc2c(Oc3ccc4[nH]c(C)cc4c3F)ccnc2cc1OCC1(N)CC1  Nausea incidence (paediatric recurrent refractory sarcoma; 10 mg): 0%
COc1ccc(-c2c(-c3ccc(C#N)c(F)c3)nc(N3CCC(N)CC3)n(C)c2=O)cc1F  serious TEAE incidence (refers to: duodenal obstruction; human patients; oral, dose not given, dose escalation): 2%
CN[C@H]1CC[C@@H](c2ccc(Cl)c(Cl)c2)c2ccccc21  elimination rate constant (CD-1 mouse, male, lung; intraperitoneal, 10 mg/kg): 5.83e-05 s⁻¹
Cc1cccc(Cn2nc(C3CC3)c3c(NC(=O)c4cnc5cc(OCCN6CCN(C)CC6)ccn45)cccc32)n1  adverse events incidence (refers to: Constipation; human platinum-resistant ovarian cancer; oral, dose not given, all-causality): 27.3%
O[C@H]1CCCN[C@@H]1CCCn1cnc2c(Cl)c(Cl)ccc21  median AUC(0-12) (healthy CYP2D6 intermediate metabolizers, plasma; oral, 150 mg single dose, alone): 739 ng·h/mL
O=C(O)CCCOc1ccc(F)cc1-c1cc(-c2ccccc2C(F)(F)F)n(-c2ccccc2)n1  relative organ weight (male Crl:CD(SD) rats, liver; intravenous, 25 µg/kg, 14 d): 2.74 ± 0.12 g%
Clc1ccc(-c2ccccc2)cc1  chloride (Sprague-Dawley rats, female, serum; inhalation, 23 µg/rat, 1 h after exposure): 90 ± 4 mmol/L
CC(=O)N(C)[C@H]1CCN(C(=O)c2cnc3c(c2)C[C@](C)(c2ccc(F)cc2)N3)C1  adverse event duration (refers to: abdominal discomfort; human; oral, dose not given, added: midazolam): 2 days
Clc1ccc(Cl)c(-c2cc(Cl)ccc2Cl)c1  log K(PDMS-water) (fresh water; 20 °C): 5.49 ± 0.05
CCN(CCO)CCCC(C)Nc1ccnc2cc(Cl)ccc12 (stereo not shown)  neutrophil decrease patients (newly diagnosed glioblastoma patients; oral, 400 mg/dose, grade 3, added: radiotherapy and temozolomide): 14%
CCc1ccc(CC/C=C/c2ccc3c(c2)C(=O)CC3)cc1  Mononuclear percentage (Sprague-Dawley rat, female; oral, 450 mg/kg/day, 14 days): 2.73%
CN1CCN(c2ccc(Nc3nccc(-c4ccc5ccccc5c4)n3)cc2C(F)(F)F)CC1  toxicity (zebrafish embryos; 25 µM, 5 d): 0%
COc1c(O)cc(O)c2c(=O)cc(-c3ccccc3)oc12  Vz/F (Sprague Dawley rat, plasma; oral, 3.34 g lyophilized powder/kg, low dose): 1870 ± 997 L/kg
Clc1ccc(-c2ccc(Cl)c(Cl)c2)cc1Cl  log K(PDMS-water) (fresh water; 20 °C): 5.52 ± 0.06
CC(C)C[C@@H]1NC(=O)CNC(=O)[C@H](CC(N)=O)NC(=O)[C@H](CCCNC(=N)N)NC(=O)[C@H]([C@@H](C)O)NC(=O)[C@@H]2CSSC[C@@H]3NC(=O)[C@H]([C@@H](C)O)NC(=O)CNC(=O)CNC(=O)[C@H](C(C)C)NC(=O)[C@@H]4CSSC[C@H](NC(=O)[C@H]([C@@H](C)O)NC(=O)[C@H](CSSC[C@H](NC(=O)[C@H](C(C)C)NC(=O)[C@@H]5CCCN5C1=O)C(=O)N[C@@H](CCCCN)C(=O)N[C@@H](CCC(=O)O)C(=O)N[C@@H]([C@@H](C)O)C(=O)N4)NC(=O)CNC(=O)[C@@H]1CCCN1C(=O)[C@H]([C@@H](C)O)NC(=O)[C@H](CC(N)=O)NC3=O)C(=O)N[C@@H](CO)C(=O)N[C@@H](Cc1c[nH]c3ccccc13)C(=O)N1CCC[C@H]1C(=O)N[C@@H](C(C)C)C(=O)N2  remaining peptide (HPLC; ammonium bicarbonate; 180 µM, 7 days, pH 9.0, 25 °C, deamidation stability): 88 ± 7%
CC(=O)c1c(C)c2cnc(Nc3ccc(C4CCN(CCS(C)(=O)=O)CC4)cn3)nc2n(C2CCCC2)c1=O  elimination rate constant (human patients, plasma; oral, 75 mg twice daily, day 1 single dose, added: fulvestrant): 4.17e-05 s⁻¹
O=C1Nc2cc3[nH]nc(-c4ccncc4)c3cc2CN1Cc1ccccc1  patients with blurred vision (CTCAE v4.03; advanced solid tumour patients; intravenous, 3.6 mg/kg, schedules 1/2): 0%
C[C@@H](NC(=O)N1C(=O)[C@H](Cc2ccnc(N)c2)[C@H]1C(=O)O)C1CCCCC1  incidence of diarrhea (healthy adult Chinese volunteers; continuous intravenous infusion, 0.6 mg/kg/h, 5-day infusion, CTCAE 5.0 grading): 12.5%
CC[C@H](C)[C@H](NC(=O)[C@H](CCCNC(=N)N)NC(=O)[C@H](CCC(=O)O)NC(C)=O)C(=O)N[C@H]1CSSC[C@@H](C(=O)N[C@H](C(N)=O)[C@@H](C)O)NC(=O)[C@H](CCCNC(=N)N)NC(=O)[C@H](Cc2c[nH]cn2)NC(=O)[C@H](C)NC(=O)CNC(=O)[C@H](Cc2c[nH]c3ccccc23)NC(=O)[C@H](CC(=O)O)NC(=O)[C@H](CCC(N)=O)NC(=O)[C@H](Cc2c[nH]c3ccccc23)NC(=O)[C@H](C(C)C)NC1=O  log retention factor (isocratic RP-HPLC, C18; 32% acetonitrile, phosphate pH 7.4, 1% TFA; 25 °C): -0.499
O=C(Nc1ccccc1)C1CCN(C(=O)Oc2cccnc2)CC1  back pain adverse events (healthy women; oral, 60 mg, 7 days): 0%
CN1CC[C@@H](c2c(O)cc(O)c3c(=O)cc(-c4ccc(C(F)(F)F)cc4Cl)oc23)[C@@H]1CO  patients with adverse event (refers to: Chills; B-cell malignancies; oral, 150 mg, intermittent dosing): 0%
COc1cccc(Oc2ccccc2NC(=O)CNC(=O)c2cccc3ccccc23)c1  eosinophils (esterase-deficient SCID mice, male, blood; oral, 100 mg/kg/day, 14 days, toxicity study; relative to: white cells): 1% and 1.8% and 2.8%
COc1cc2c(cc1OC)CN(CCc1ccc(NC(=O)c3cccc4c(=O)c5cccc(OC)c5[nH]c34)cc1)CC2  Tmax (CD-1 mouse, male, plasma; intraperitoneal, 0.3 mg/kg): 2 h
CCN1[C@@H](C(=O)NC23CCC(C(=O)O)(CC2)CC3)[C@H](c2cccc(Cl)c2F)[C@]2(C(=O)Nc3cc(Cl)ccc32)C12CCCCC2  grade ≥3 Thrombocytopenia incidence (patients with advanced solid tumours; oral, dose not given, all doses): 33.3%
